{"data": "Experimental data gathered from unrelated publications", "note": "Protocols differ between the studies behind these lines. Values joined by “and” are separate records of one study, mostly repeats; a detail may differ. Numbers after ± are the reported error."}
{"SMILES": "COC(=O)[C@H](C)Nc1ccnc(Nc2cccc(-c3cccnc3)c2)n1", "sample": "citrate phosphate-buffered saline", "time": "18 h", "pH": "pH 7.4", "notes": "1% DMSO", "solubility": "52.6 ± 1.5 µM"}
{"SMILES": "Nc1nc2c(ncn2COCCO)c(=O)[nH]1", "sample": "methanol + water", "time": "24 h", "temperature": "298.2 K", "notes": "methanol mass fraction 0.9", "solubility": "1100 µg/mL"}
{"SMILES": "COC1=CC(c2ccc[nH]2)=N/C1=C\\c1cc(Cc2ccc(OC(F)(F)F)cc2)c(C)[nH]1.Cl", "sample": "potassium phosphate buffer", "time": "1.5 h", "pH": "pH 7.4", "temperature": "room temperature", "solubility": "< 3.13 µM"}
{"SMILES": "COc1cc(Br)cc2c1OCC(C(=O)Nc1ccc3c(c1)CN(C1CCC(=O)NC1=O)C3=O)=C2 (centres unmarked)", "sample": "DMSO", "solubility": "≤ 25000 µM"}
{"SMILES": "CCn1c(SCC(=O)Nc2ccccc2OC)nnc1-c1ccco1", "sample": "aqueous buffer", "pH": "pH 7.4", "solubility": "15.6 µg/mL"}
{"SMILES": "Cn1cncc1[C@@](N)(c1ccc(Cl)cc1)c1ccc2c(c1)c(-c1cccc(Cl)c1)cc(=O)n2C", "sample": "USP phosphate buffer", "pH": "pH 7.5", "temperature": "25 °C", "notes": "final pH 7.49", "solubility": "0.14 µg/mL"}
{"SMILES": "COc1cccc([C@@H]2COCC3(CCOCC3)N2)c1", "technique": "shake-flask, LC-HRMS", "sample": "aqueous buffer", "time": "16 h", "pH": "pH 6.8", "solubility": "> 750 µM"}
{"SMILES": "CC[C@@H](C)Nc1ccnc(Nc2cccc(-c3cccnc3)c2)n1", "sample": "citrate phosphate-buffered saline", "time": "18 h", "pH": "pH 7.4", "notes": "1% DMSO", "solubility": "17.5 ± 1.9 µM"}
{"SMILES": "c1ccc(-c2ccc([C@H]3COC[C@@H](c4ccc(-n5cncn5)cc4)N3)cc2)cc1", "technique": "shake-flask, LC-HRMS", "sample": "aqueous buffer", "time": "16 h", "pH": "pH 6.8", "solubility": "< 4 µM"}
{"SMILES": "CC(=O)O[C@H]1C(=O)[C@@]2(C)[C@H]([C@H](OC(=O)c3ccccc3)[C@]3(O)C[C@H](OC(=O)[C@H](OC(=O)OCc4cc(C(=O)O)ccc4OP(=O)(O)O)[C@@H](NC(=O)c4ccccc4)c4ccccc4)C(C)=C1C3(C)C)[C@]1(OC(C)=O)CO[C@@H]1C[C@@H]2O", "technique": "HPLC, saturated solution", "sample": "simulated gastric fluid", "time": "30 s", "pH": "pH 1.2", "solubility": "22 µg/mL"}
{"SMILES": "C[C@@H](O)[C@H](NC(=O)c1ccc(-c2ccc(Br)cc2)cc1)C(=O)NCC1(C)NC(=O)NC1=O (some centres unmarked)", "sample": "aqueous buffer", "pH": "pH 7.4", "solubility": "130 µg/mL"}
{"SMILES": "c1ccc(-c2ccc([C@H]3COC[C@@H](C4CCC4)N3)cc2)cc1", "technique": "shake-flask, LC-HRMS", "sample": "aqueous buffer", "time": "16 h", "pH": "pH 6.8", "solubility": "< 4 µM"}
{"SMILES": "c1ccc(-c2cccc(Nc3nccc(NC4CCCCC4)n3)c2)nc1", "sample": "citrate phosphate-buffered saline", "time": "18 h", "pH": "pH 7.4", "notes": "1% DMSO", "solubility": "1 ± 4.4 µM"}
{"SMILES": "O=C(Cc1ccc(OCCN2CCCC2)cc1)Nc1cc(C2CC2)[nH]n1", "sample": "aqueous buffer", "pH": "pH 7.4", "solubility": "> 2290 µg/mL"}
{"SMILES": "CN1C(=O)[C@@H](NC(=O)c2nnc(Cc3ccccc3)[nH]2)COc2cccnc21", "notes": "Biopharmaceutics Classification System", "solubility": "< 100 µg/mL"}
{"SMILES": "COc1ccc(-c2cc(=O)c3c(OC)cc(OC)cc3o2)cc1", "technique": "HPLC", "sample": "ethanol:butylene glycol 25:75", "solubility": "12514 ± 11 ppm"}
{"SMILES": "N=C(N)NCCNC(=O)C1(Nc2ccccc2)CCN(Cc2ccccc2)CC1", "sample": "water", "notes": "hydrochloride salt", "solubility": "≤ 16000 µg/mL"}
{"SMILES": "CCc1cc(C)cc(CC)c1-c1c(OC(=O)C2(C(F)(F)F)CC2)n2n(c1=O)CCOCC2", "sample": "PBS", "pH": "pH 7.4", "temperature": "25 °C", "notes": "2% DMSO", "solubility": "333 µM"}
{"SMILES": "CC(=O)Nc1cccc(-c2nnc(SCC(=O)Nc3ccc(C(C)=O)cc3)n2C)c1", "sample": "aqueous buffer", "pH": "pH 7.4", "solubility": "2.97 µg/mL"}
{"SMILES": "CCOC(=O)N1C[C@@H]([C@H]2CCOC2)N[C@@H](C2CC2)C1", "technique": "shake-flask, LC-HRMS", "sample": "aqueous buffer", "time": "16 h", "pH": "pH 6.8", "solubility": "> 750 µM"}
{"SMILES": "Cc1cc(/C=C/C#N)cc(C)c1Nc1ccnc(Nc2ccc(C#N)cc2)n1", "sample": "Capmul MCM C8", "time": "24 h", "temperature": "37 °C", "solubility": "1710 ± 160 µg/mL"}
{"SMILES": "Clc1nc(OCc2ccccc2)c2[nH]cnc2n1", "technique": "UV absorbance", "sample": "culture medium", "notes": "stock diluted to 0.60 mM", "solubility": "180 µM"}
{"SMILES": "C[C@H](Nc1ccnc(Nc2cccc(-c3cccnc3)c2)n1)C(=O)O", "sample": "citrate phosphate-buffered saline", "time": "18 h", "pH": "pH 7.4", "notes": "1% DMSO", "solubility": "61.9 ± 2.2 µM"}
{"SMILES": "COc1cc(OC)c2c(=O)c(OC)c(-c3ccc(OC)c(OC)c3)oc2c1", "technique": "HPLC", "sample": "ethanol:butylene glycol 75:25", "solubility": "13260 ± 56 ppm"}
{"SMILES": "COc1ccc([N+](=O)[O-])cc1NC(=O)C(C)Oc1ccccc1C (centres unmarked)", "sample": "aqueous buffer", "pH": "pH 7.4", "solubility": "< 3.54 µg/mL"}
{"SMILES": "NC[C@H](NC(=O)[C@@H](CCCCNC(=O)CN1CCN(CC(=O)O)CCN(CC(=O)O)CCN(CC(=O)O)CC1)NC(=O)[C@@H](Cc1c[nH]c2ccccc12)NC(=O)OCC1c2ccccc2-c2ccccc21)C(N)=O", "sample": "aqueous buffer", "solubility": "≥ 5000 µM"}
{"SMILES": "COc1cccc(-c2cccc(Nc3nccc(NC(C)C)n3)c2)c1", "sample": "citrate phosphate-buffered saline", "time": "18 h", "pH": "pH 7.4", "notes": "1% DMSO", "solubility": "0.2 ± 0.7 µM"}
{"SMILES": "CCCCCCCCCCCCCCCC(=O)NCCO", "sample": "hydrochloride buffer", "time": "12 h", "pH": "pH 1.2", "temperature": "37 °C", "solubility": "< 16 µg/mL"}
{"SMILES": "CC1(C)OC[C@H](C2CCC2)N[C@@H]1c1ccc(Cl)c(Cl)c1", "technique": "shake-flask, LC-HRMS", "sample": "aqueous buffer", "time": "16 h", "pH": "pH 6.8", "solubility": "< 4 µM"}
{"SMILES": "COC(=O)c1ccc(NC(=O)CSc2nnc(-c3ccc(NC(C)=O)cc3)n2C)cc1", "sample": "aqueous buffer", "pH": "pH 7.4", "solubility": "< 2.35 µg/mL"}
{"SMILES": "CNC(=O)c1ccccc1Nc1cc(Nc2ccc(N3CCOCC3)cc2OC)ncc1C(F)(F)F", "sample": "Tween 80", "time": "24 h", "temperature": "25 °C", "solubility": "~100 µg/mL"}
{"SMILES": "COc1cc(OC)c2c(=O)cc(-c3ccccc3)oc2c1", "technique": "HPLC", "sample": "ethanol:butylene glycol 100:0", "solubility": "13700 ± 95 ppm"}
{"SMILES": "O=S(=O)(c1ccc(-c2ccc3nccc(Nc4ccc5[nH]nnc5c4)c3c2)cc1)N1CCOCC1", "technique": "thermodynamic", "sample": "aqueous medium", "solubility": "5 µM"}
{"SMILES": "Cc1nc(C)c(-c2ccnc(Nc3ccc(F)cc3)n2)s1", "sample": "aqueous buffer", "pH": "pH 7.4", "solubility": "< 1.61 µg/mL"}
{"SMILES": "Fc1ccc([C@H]2COC[C@H](c3ccc(-c4ccccc4)cc3)N2)cc1", "technique": "shake-flask, LC-HRMS", "sample": "aqueous buffer", "time": "16 h", "pH": "pH 6.8", "solubility": "< 4 µM"}
{"SMILES": "c1ccc(CSc2ncnc3nc[nH]c23)cc1", "technique": "UV absorbance", "sample": "culture medium", "notes": "stock diluted to 0.025 mM", "solubility": "25 µM"}
{"SMILES": "COc1ccc(-n2nc(C(=O)NC(=O)OCc3cc(C(=O)O)ccc3OP(=O)(O)O)c3c2C(=O)N(c2ccc(N4CCCCC4=O)cc2)CC3)cc1", "technique": "HPLC, saturated solution", "sample": "HBSS", "time": "30 s", "pH": "pH 6.5", "solubility": "43000 µg/mL"}
{"SMILES": "O=C(Nc1ccc2[nH]ccc2c1)c1ccccc1Cl", "technique": "kinetic solubility", "sample": "PBS with NaCl, SDS, ThT", "pH": "pH 7.4", "solubility": "≥ 300 µM"}
{"SMILES": "O=S(=O)(c1ccc(-c2ccc3nccc(Nc4ccccc4)c3c2)cc1)N1CCOCC1", "technique": "thermodynamic", "sample": "aqueous medium", "solubility": "12 µM"}
{"SMILES": "CCC1=C(CC)/C(=C/c2[nH]c(Cc3ccc(Cl)cc3)cc2Cc2ccc(Cl)cc2)N=C1c1ccc[nH]1", "sample": "potassium phosphate buffer", "time": "1.5 h", "pH": "pH 7.4", "temperature": "room temperature", "solubility": "< 3.13 µM"}
{"SMILES": "COc1ccccc1-n1nnnc1SCC(=O)Nc1ccccc1SC", "sample": "aqueous buffer", "pH": "pH 7.4", "solubility": "< 2.77 µg/mL"}
{"SMILES": "O=C(Nc1ccc(OC(F)(F)F)cc1)N[C@H]1CC[C@H](Oc2ccc(C(=O)O)cc2)CC1", "sample": "deionised water", "time": "15 min", "pH": "pH 6.6", "temperature": "37 °C", "notes": "non-sink dissolution", "solubility": "0.439 µg/mL"}
{"SMILES": "CCOC(=O)N1C[C@@H](C2CCCCC2)N[C@@H](c2ccc(C(C)(C)C)cc2)C1", "technique": "shake-flask, LC-HRMS", "sample": "aqueous buffer", "time": "16 h", "pH": "pH 6.8", "solubility": "< 4 µM"}
{"SMILES": "O=C(Nc1ccccc1)C1(C(F)(F)F)CC1", "sample": "PBS", "pH": "pH 7.4", "temperature": "25 °C", "notes": "2% DMSO", "solubility": "371 µM"}
{"SMILES": "O=C(CNc1ccc(OC(F)(F)F)cc1)NC12CC3CC(CC(C3)C1)C2", "time": "6 h", "pH": "pH 7.4", "solubility": "< 10 µg/mL"}
{"SMILES": "CCCC[C@H]1CN(c2cccc(OC(F)(F)F)c2)C(=O)CN1Cc1cncn1Cc1ccc(Br)cc1", "sample": "aqueous solution", "notes": "maximal solubility", "solubility": "~200 µM"}
{"SMILES": "CC(C)(C)c1ccc([C@@H]2COC[C@@H](C3CCCCC3)N2)cc1", "technique": "shake-flask, LC-HRMS", "sample": "aqueous buffer", "time": "16 h", "pH": "pH 6.8", "solubility": "< 4 µM"}
{"SMILES": "O=C(NC1(C(F)(F)F)CC1)c1ccccc1", "sample": "PBS", "pH": "pH 7.4", "temperature": "25 °C", "notes": "2% DMSO", "solubility": "393 µM"}
{"SMILES": "Cc1nccn1CC1CCc2c(c3ccccc3n2C)C1=O (centres unmarked)", "technique": "kinetic solubility", "sample": "PBS with 2% DMSO", "time": "2 h", "pH": "pH 7.4", "temperature": "25 °C", "notes": "single incubation", "solubility": "104 µM and 101 µM"}
{"SMILES": "CCn1nccc1Nc1ccnc2ccc(-c3ccc(S(=O)(=O)N4CCOCC4)cc3)cc12", "technique": "thermodynamic", "sample": "aqueous medium", "solubility": "5 µM"}
{"note": "A few entries again:"}
{"SMILES": "CCC1=C(CC)/C(=C/c2[nH]c(Cc3ccc(Cl)cc3)cc2Cc2ccc(Cl)cc2)N=C1c1ccc[nH]1", "sample": "potassium phosphate buffer", "time": "1.5 h", "pH": "pH 7.4", "temperature": "room temperature", "solubility": "< 3.13 µM"}
{"SMILES": "NC[C@H](NC(=O)[C@@H](CCCCNC(=O)CN1CCN(CC(=O)O)CCN(CC(=O)O)CCN(CC(=O)O)CC1)NC(=O)[C@@H](Cc1c[nH]c2ccccc12)NC(=O)OCC1c2ccccc2-c2ccccc21)C(N)=O", "sample": "aqueous buffer", "solubility": "≥ 5000 µM"}
{"SMILES": "CCCC[C@H]1CN(c2cccc(OC(F)(F)F)c2)C(=O)CN1Cc1cncn1Cc1ccc(Br)cc1", "sample": "aqueous solution", "notes": "maximal solubility", "solubility": "~200 µM"}
